# Published values collected from several papers.
# Each numbered part is a random draw from the data of one study; scales do not carry over between parts. Changes are numbered by the printed parent chain.

# Set 1
# Target: TAR DNA-binding protein 43, full length, His tag (TARDBP, Homo sapiens, UniProt Q13148, residues 1-414)
# Technique: RNA Bind-n-Seq
# Form: RNA
# Matrix: in vitro
# Tested at: 20 nM
# Notes: 6-mer, flanks averaged, single round
# Added: 150 mM KCl
# Relative to: input library
# Direction: higher = stronger binding
Oligonucleotide,6-mer enrichment (R)
CGGCCU,0.817
CCCUAA,0.631
CUAUUG,0.63
GUGUAA,0.964
ACCCGG,0.881
GUAGCG,1.66
AUGGCU,0.767
ACACCU,0.652

# Set 2
# Target: CCND3, cyclin fold, Cln2 fusion (human)
# Technique: yeast growth competition, sequencing
# Matrix: yeast
# Notes: weak parent motif
# Relative to: not given
# Direction: higher = stronger binding
# Parent: viral docking peptide; KGVKRKLFAEDSS; partner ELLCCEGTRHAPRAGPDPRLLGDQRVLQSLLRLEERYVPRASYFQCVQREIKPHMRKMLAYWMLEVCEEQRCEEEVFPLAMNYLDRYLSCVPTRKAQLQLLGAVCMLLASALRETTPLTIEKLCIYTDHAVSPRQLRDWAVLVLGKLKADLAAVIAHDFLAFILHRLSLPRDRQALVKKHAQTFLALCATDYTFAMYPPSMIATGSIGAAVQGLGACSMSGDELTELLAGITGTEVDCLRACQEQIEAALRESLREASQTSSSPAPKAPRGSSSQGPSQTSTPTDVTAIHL
Substitution,normalised enrichment score
A9Y,0.0611
K4L,0.303
L7D,0.0111
A9D,0.125
A9H,0.0828
R5A L7A,0.203
D11L,-0.206
R5C,0.0725
K6A,-0.0832
S12K,0.169
K4M,-0.262
K1A,0.19
F8R,0.317
K6R,0.456
K4E,0.314
K6C,-0.0194
L7I,0.592
G2K,0.459
D11C,-0.0892
F8V,0.457
K6T,0.256
F8G,0.641
L7W,-0.35
L7M,0.6
S12F,-0.0352

# Set 3
# Substitution: R49T
# Target: ABI1, truncated, D143A, DHFR fusion (Arabidopsis thaliana)
# Technique: DHFR PCA, deep sequencing
# Matrix: yeast
# Notes: methotrexate growth selection, single substitutions
# Relative to: wild-type fitted maximum
# Direction: higher = stronger binding
# Parent: PYL1, truncated, DHFR fusion (Arabidopsis thaliana); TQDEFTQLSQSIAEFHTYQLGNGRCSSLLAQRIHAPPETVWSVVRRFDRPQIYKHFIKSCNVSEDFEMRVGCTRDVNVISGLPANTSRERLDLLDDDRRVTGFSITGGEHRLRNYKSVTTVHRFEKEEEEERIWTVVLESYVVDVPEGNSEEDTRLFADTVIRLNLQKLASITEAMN; partner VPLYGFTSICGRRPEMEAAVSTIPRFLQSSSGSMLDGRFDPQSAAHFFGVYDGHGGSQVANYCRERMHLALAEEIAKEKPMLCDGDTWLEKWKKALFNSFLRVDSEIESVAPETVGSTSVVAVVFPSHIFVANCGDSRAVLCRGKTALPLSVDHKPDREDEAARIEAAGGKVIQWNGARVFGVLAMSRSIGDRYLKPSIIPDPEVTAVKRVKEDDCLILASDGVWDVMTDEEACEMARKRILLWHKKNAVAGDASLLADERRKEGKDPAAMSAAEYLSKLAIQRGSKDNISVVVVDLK
conditions,relative binding score [%]
added: (+)-ABA 0.11 µM,21.2
added: (+)-ABA 1.4 µM,50.3
added: (+)-ABA 0.39 µM,28.7
added: (+)-ABA 710 µM,102
added: (+)-ABA 0 µM,17.7
added: (+)-ABA 0.0091 µM,8.77

# Set 4
# Substance: ANK3 (Homo sapiens, UniProt Q12955)
# Technique: cross-linking MS
# Matrix: cell fractions
# Added: DMTMM
partner,cross-linked residues
"PIK3R5 (Homo sapiens, UniProt Q8WYR1)",D2575 to K789
"SMG5 (Homo sapiens, UniProt Q9UPR3)",D2575 to K278
"CCDC71 (Homo sapiens, UniProt Q8IV32)",D2575 to K24

# Set 5
# Target: UBE2D4 UBC core domain (UniProt Q9Y2X8)
# Technique: yeast two-hybrid
# Matrix: yeast
# Notes: mostly zero background
# Relative to: not given
# Direction: higher = stronger interaction
# B1: RNF32 RING domain (UniProt Q9H0A6); chain VQALRRETHECSICLAPLSAAGGQRVGAGRRSREMALLSCSHVFHHACLLALEEFSVGDRPPFHACPLCRSCYQKKILEC
# B2: TRIM74 RING domain (UniProt Q86UV6); chain SLLELEDWLQCPICLEVFKESLMLQCGHSYCKGCLVSLSYHLDTKVRCPMCWQVVDGSSSLP
# B3: RNF115 RING domain (UniProt Q9Y4L5); chain TQEQVDMGLECPVCKEDYTVEEEVRQLPCNHFFHSSCIVPWLELHDTCPVCRKSLNGEDSTR
# B4: NHLRC1 RING domain (UniProt Q6VVB1); chain MREAEISLLECKVCFEKFGHRQQRRPRNLSCGHVVCLACVAALAHPRTLALECPFCRRACRGCDTSD
# B5: MDM2 RING domain (UniProt Q00987); chain TQDKEESVESSLPLNAIEPCVICQGRPKNGCIVHGKTGHLMACFTCAKKLKKRNKPCPVCRQPIQMIVLTYFP
# B6: TRIM34 RING domain (UniProt Q9BYJ4); chain ILLNVQEEVTCPICLELLTEPLSLDCGHSLCRACITVSNKEAVTSMGGKSSCPVCGISYSFEHLQA
# Target sequence (chain): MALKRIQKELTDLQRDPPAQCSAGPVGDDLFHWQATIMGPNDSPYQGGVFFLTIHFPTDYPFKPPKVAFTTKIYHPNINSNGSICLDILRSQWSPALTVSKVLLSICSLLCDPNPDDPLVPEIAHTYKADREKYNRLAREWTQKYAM
Sequence,lacZ reporter activity
B1 (RNF32 RING domain),0
B2 (TRIM74 RING domain),0
B3 (RNF115 RING domain),4570
B4 (NHLRC1 RING domain),0
PLRRLQEEKLCKICMDRHIAVVFIPCGHLVTCKQCAEAVDRCPMCSAVIDFKQRVF (BIRC8 RING domain (UniProt Q96P09)),0
B5 (MDM2 RING domain),0
B6 (TRIM34 RING domain),0

# Set 6
# Target: HLA class I histocompatibility antigen, A alpha chain, allele A*26:03 (Homo sapiens, UniProt P04439)
# Read-out: peptide-MHC binding
# Form: peptide
# Tested at: concentration not given
Sequence,binding
SDDQLRLLK,inactive
GLYRLNFRR,inactive
VLYCVHQHI,inactive
DTVLFNAGL,inactive
WHQARFEEL,inactive

# A few entries again (set 2):
Substitution,normalised enrichment score
F8V,0.457
K6T,0.256
F8G,0.641
L7W,-0.35
L7M,0.6
S12F,-0.0352
